Results gathered from unrelated publications.
Numbered parts are unrelated; each lists some results of a single study.

Block 1
Target: Eukaryotic initiation factor 4A-I (EIF4A1, Homo sapiens, UniProt P60842, residues 1-406, full length assumed)
Sequence of UniProt P60842 (whole entry, looked up): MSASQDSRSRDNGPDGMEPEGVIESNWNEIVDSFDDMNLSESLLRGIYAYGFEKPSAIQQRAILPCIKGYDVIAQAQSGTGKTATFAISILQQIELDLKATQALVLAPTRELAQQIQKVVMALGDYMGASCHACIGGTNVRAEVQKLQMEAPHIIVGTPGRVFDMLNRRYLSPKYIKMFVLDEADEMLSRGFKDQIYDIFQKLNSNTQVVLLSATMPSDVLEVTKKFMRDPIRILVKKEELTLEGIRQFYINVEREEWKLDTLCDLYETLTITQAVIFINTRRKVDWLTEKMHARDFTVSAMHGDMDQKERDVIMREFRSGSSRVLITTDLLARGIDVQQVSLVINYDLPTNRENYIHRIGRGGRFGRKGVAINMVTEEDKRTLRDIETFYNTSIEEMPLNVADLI
Technique: RNA Bind-n-Seq
Molecule type: RNA
Medium: in vitro
Concentration: not given
Setting: 4-mer, random 30-nt RNA, single round
Added: RocA, ADP, phosphate
Reference: input library
Direction: higher = stronger binding
The 4-mer enrichment of `UCGC` is reported as 0.577 fold.
With `AGAC` the 4-mer enrichment was 1.02 fold.
`CGCG` has a 4-mer enrichment of 0.743 fold.
The 4-mer enrichment of `UUUU` is reported as 1 fold.
`UUCC` has a 4-mer enrichment of 0.541 fold.
The 4-mer enrichment of `UACG` is reported as 0.78 fold.
For `UAUU`, the 4-mer enrichment was 0.915 fold.
The 4-mer enrichment of `GAGA` is reported as 3.78 fold.

Block 2
Target: Hepatocyte nuclear factor 3-alpha (Foxa1, Mus musculus, UniProt P35582, residues 1-468, full length assumed)
Technique: EMSA with sequencing
Molecule type: double-stranded DNA, one strand shown
Medium: in vitro
Concentration: 10 and 20 nM
Setting: whole designed probe, mean of two concentrations, ends assumed
Reference: negative control set to 0
Direction: higher = stronger binding
Residues (chain): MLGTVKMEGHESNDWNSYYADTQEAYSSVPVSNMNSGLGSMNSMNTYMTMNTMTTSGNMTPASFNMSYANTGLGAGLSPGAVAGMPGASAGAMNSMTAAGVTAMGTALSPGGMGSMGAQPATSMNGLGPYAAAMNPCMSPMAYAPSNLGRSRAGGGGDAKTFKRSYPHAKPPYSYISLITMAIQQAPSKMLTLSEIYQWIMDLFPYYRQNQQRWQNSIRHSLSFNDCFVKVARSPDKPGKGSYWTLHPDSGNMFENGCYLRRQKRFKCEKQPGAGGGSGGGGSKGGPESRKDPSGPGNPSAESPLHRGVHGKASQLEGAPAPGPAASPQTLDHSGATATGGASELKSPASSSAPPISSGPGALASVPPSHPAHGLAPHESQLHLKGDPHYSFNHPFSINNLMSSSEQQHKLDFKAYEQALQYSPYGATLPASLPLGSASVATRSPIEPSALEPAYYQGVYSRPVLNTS
For `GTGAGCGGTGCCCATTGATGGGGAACCATTAGAGTCAAAGTTGTTAAGGGGAGCTAGTCATAGCTACCACGTGGCCAGGCATGTGGAACCAGACACCAGGCACACATCATGTAACATCATATTTACTTTAAATAATGCATGAATCATCATTCATAGTGACACACTACTTGAGATATATAGAATAACATTATTACCCAGTAAGTATGTGAACATTCCGATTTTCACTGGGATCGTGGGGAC`, “normalised bound fraction” read 0.293 ratio.
Under “normalised bound fraction”, `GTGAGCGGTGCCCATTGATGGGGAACGTAACTGTGAGATTTCTGAATTTACAACCTCCCTACAGGAAGTACCAGGTGGCCACGAAAGGCAGCATGGTCCCCATCTCTAATTAAGCTAATGTAATCTAGTGCCACAAGATGGCGCCAAACCACAGATGAAACTGACGCCAATTTGGATTCTTTGGGTGGATGGATCTCCCAGAACTTCCAGCTGGCTAGATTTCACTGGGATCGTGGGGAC` is recorded as 0.159 ratio.
`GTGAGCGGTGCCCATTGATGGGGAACCTCCTATTTGTTCTGTTTTTCTGAAAAACCCTAACATGTAACCAAATTACCCCTTTCTTCACACATCATTCTTCCAATCATGCTTTCTTTAAAATAATCTGCTAAATGTTTCTTCCTTTTAAGAAAGGTCTGTGTGCTACAGATTACCCTGCAAATGTTCTTTGTGACTATGTAGGAAAGATCAGGCACATCCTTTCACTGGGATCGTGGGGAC`: “normalised bound fraction” 0.0128 ratio.
`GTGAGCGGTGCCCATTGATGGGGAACGCTCTTGCACCAAAGCTTCCTAAAGTTGGTGATTTATTTCTGACAAGTCTGCAAAACCTGAGACAGCATTTTTCTGGGTTGAACTCACACTTCGTGTTTACTGAAGTCTGAGTCACGGCCCTGCCTTGCTCACAGGCACGCCTGACTGTTCTTTACGCTGATACCAGTATGCAGGGCCAGCTCCCTCTACCATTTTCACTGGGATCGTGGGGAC` — result for “normalised bound fraction”: 0.0664 ratio.
For `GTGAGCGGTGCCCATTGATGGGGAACGCAGTTGAACTTAAATATAAAGTTGAGCTTAGATACAAAGGTTCTTTAGAACTTTAAAAGACATGGGTGAACAAAACCCAAACTAATCCTCTGATGTTTACTTAGAAACAAAAACCTAAATGAAATTCAAAATAGATATCTGAATCTAGATTTGTGTATAAACATTAGATTGAAAGACTAGGGTCTGGAACAGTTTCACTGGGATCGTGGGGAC`, “normalised bound fraction” read 0.463 ratio.
For `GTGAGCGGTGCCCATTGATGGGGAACCTGTTAATTTTTGTTTGCTTGTAATACACATTTTTATGTAACTGGGAGTAAGGAACATCTTAGGAAAAAGAAAACAAAAAATAAAATTTCGCTGTTTACACTGTGCCTTGGTCCAGTAACCCTGCACTGCACATATACACTTTAAATTGGTGCCTTGGGGAACCACTTCGGTATTTCTTTTTTTTTTTTCTTTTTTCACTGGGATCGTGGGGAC`, “normalised bound fraction” read 0.269 ratio.
Under “normalised bound fraction”, `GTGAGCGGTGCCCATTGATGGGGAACCGGGGGCAGGTGAGCCTGCAGCTCCATGGCCCATGTCTGACTCTTCTCCCAGTGGCCATGGCTGGCTGCATGCAATGTTGACTCATCCCTGTGTACACATGGCATATTTATTTTTAATTCATATTAGGAATGTGCACCAACTTGTGTGTGAAAAATGGCAGAAACGATTCCACCTCTGTACAAATTTCATACATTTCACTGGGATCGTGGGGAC` is recorded as 0.364 ratio.
`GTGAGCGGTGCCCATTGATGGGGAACCAAGTTTGTGGTCCAGGAGCAACAGGTTATGCCATACAGCCTAGGTGTGTAGTAGGCTACACACCGTCTATGTTTGTGTTGTACACTCTACAATGTTTGCACAATGATGAAATCTTCTCAGAACCCATGACTCATATACCCCTGTTGTTAAGCGATACATGACTGTACTTTTTTTAAAAAGTCCAAGGATATATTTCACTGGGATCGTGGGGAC`: “normalised bound fraction” 0.386 ratio.

Block 3
Target: Interferon regulatory factor 7, full length, phosphomimetic (IRF7, Homo sapiens, UniProt Q92985, residues 1-503, S101K/S471D/S472D/S475D/S476D/S477D/S483D/S484D/S487D)
Technique: protein-binding microarray
Molecule type: double-stranded DNA, one strand shown
Medium: in vitro
Concentration: 250 nM
Setting: 60-bp whole probe
Added: salmon DNA 0.4 mg/ml
Reference: random background probes
Direction: higher = stronger binding
Constant ends, left off below: GCCTAGCAC … GTCTTGATTCGCTTGACGCTGCTG
Residues (chain): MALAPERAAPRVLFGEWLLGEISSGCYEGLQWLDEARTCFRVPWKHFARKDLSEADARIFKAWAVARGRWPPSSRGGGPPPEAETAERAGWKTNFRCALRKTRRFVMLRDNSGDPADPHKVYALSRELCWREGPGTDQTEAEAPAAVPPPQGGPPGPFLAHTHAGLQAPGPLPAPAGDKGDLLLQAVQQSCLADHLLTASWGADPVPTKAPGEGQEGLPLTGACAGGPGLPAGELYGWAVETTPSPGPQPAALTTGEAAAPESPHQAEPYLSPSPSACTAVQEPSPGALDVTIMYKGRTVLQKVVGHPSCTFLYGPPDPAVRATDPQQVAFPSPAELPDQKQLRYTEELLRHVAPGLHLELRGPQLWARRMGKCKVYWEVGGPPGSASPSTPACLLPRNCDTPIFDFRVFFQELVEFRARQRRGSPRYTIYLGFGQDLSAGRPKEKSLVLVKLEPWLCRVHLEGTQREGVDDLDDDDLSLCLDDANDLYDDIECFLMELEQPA
`TTAAGTCTCCTTTTCCTTTAGTGCTAG` has a log fluorescence of 2.1 z-score.
`GACGGTCTCCTACTGTTGACGTGCTAG` gave a log fluorescence of -0.0575 z-score.
`TTAGAACTGGGCTTTCGATTAGTGCTA` gave a log fluorescence of -0.147 z-score.
The log fluorescence of `GACTGTTTCGGTATCGGGACGTGCTAG` is reported as 4.8 z-score.
`TGGGCTGTGGGTTTGAGTCTGTGCTAG` gave a log fluorescence of -0.99 z-score.
The log fluorescence of `TTAGGTATCCCACTGCTTTAGTGCTAG` is reported as -0.172 z-score.
With `TTAGATTTCGGGTATCGATGAGTGCTA` the log fluorescence was 0.699 z-score.
`TCAAGTTTCCATTTTCAACTGTGCTAG` has a log fluorescence of 7.59 z-score.

Other studies, line by line
For `CNC(=O)CN(c1ccc(C(C)C)cc1)S(C)(=O)=O`, the remaining compound was 88.4% (human, microsomes or S9; 2 µM, 0.5 h).

For quick reference, copied from above (block 3):
The log fluorescence of `TTAGGTATCCCACTGCTTTAGTGCTAG` is reported as -0.172 z-score.
With `TTAGATTTCGGGTATCGATGAGTGCTA` the log fluorescence was 0.699 z-score.
